Results of several laboratories.
Each line is one published result; not all experiments were run side by side. ± marks the error that the study gave.

Amino acid sequences for entries named in this document (tags omitted).
UniProt Q9ULI0, whole entry: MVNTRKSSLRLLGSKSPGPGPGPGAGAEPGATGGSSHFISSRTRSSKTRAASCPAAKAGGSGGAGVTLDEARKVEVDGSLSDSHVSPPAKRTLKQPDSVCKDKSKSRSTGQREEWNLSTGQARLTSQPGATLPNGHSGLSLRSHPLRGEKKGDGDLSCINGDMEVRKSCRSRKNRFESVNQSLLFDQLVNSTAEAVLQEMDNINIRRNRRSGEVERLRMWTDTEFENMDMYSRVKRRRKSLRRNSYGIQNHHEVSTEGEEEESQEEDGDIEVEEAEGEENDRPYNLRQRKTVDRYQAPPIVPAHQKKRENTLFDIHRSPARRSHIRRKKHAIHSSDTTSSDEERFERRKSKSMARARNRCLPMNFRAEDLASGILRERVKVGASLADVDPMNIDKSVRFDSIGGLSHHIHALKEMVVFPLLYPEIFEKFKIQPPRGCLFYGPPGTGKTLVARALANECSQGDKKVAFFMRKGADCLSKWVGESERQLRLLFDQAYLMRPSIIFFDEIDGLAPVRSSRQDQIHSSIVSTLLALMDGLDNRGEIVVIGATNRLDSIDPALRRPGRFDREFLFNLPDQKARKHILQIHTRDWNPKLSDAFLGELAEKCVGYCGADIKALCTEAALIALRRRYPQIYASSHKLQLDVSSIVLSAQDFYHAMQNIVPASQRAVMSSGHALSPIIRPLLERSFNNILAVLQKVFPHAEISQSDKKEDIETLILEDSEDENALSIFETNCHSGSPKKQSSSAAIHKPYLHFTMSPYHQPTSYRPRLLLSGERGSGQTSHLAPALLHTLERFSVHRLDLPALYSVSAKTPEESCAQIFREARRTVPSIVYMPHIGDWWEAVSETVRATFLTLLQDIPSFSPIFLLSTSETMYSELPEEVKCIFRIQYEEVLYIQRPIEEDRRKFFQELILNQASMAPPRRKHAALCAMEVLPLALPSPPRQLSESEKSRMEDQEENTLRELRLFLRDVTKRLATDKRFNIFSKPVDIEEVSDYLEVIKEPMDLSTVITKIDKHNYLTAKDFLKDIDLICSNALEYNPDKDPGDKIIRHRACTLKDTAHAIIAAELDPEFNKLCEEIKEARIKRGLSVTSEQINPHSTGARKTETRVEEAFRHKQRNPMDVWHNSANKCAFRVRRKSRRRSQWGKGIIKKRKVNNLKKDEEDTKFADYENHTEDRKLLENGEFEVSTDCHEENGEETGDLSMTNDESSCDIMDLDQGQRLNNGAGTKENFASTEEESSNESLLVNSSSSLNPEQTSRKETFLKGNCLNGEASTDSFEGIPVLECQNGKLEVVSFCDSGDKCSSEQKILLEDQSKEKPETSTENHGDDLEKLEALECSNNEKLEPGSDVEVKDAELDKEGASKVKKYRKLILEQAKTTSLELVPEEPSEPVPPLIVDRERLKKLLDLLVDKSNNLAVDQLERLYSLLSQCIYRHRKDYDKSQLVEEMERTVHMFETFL
UniProt P10636, whole entry, looked up: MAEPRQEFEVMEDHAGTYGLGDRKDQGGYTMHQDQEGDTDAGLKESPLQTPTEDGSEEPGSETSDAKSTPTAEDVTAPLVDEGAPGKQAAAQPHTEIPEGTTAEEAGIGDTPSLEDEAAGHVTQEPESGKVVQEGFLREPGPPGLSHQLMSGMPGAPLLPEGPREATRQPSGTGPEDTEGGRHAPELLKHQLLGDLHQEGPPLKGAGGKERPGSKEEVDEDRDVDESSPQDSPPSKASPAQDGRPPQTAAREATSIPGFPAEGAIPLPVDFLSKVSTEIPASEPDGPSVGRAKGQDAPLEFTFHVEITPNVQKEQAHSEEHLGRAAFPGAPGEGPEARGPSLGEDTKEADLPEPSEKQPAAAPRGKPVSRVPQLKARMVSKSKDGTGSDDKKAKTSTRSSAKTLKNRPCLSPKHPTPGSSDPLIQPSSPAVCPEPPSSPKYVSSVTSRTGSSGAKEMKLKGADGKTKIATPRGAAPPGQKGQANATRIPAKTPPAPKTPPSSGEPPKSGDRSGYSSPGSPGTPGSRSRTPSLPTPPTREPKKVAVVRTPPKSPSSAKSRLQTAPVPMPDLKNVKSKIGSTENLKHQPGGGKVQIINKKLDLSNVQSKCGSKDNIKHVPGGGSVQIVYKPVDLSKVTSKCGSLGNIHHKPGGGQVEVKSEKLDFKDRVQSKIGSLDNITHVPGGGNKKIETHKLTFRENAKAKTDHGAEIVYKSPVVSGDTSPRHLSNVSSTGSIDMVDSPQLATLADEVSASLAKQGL
UniProt Q9UL54, whole entry: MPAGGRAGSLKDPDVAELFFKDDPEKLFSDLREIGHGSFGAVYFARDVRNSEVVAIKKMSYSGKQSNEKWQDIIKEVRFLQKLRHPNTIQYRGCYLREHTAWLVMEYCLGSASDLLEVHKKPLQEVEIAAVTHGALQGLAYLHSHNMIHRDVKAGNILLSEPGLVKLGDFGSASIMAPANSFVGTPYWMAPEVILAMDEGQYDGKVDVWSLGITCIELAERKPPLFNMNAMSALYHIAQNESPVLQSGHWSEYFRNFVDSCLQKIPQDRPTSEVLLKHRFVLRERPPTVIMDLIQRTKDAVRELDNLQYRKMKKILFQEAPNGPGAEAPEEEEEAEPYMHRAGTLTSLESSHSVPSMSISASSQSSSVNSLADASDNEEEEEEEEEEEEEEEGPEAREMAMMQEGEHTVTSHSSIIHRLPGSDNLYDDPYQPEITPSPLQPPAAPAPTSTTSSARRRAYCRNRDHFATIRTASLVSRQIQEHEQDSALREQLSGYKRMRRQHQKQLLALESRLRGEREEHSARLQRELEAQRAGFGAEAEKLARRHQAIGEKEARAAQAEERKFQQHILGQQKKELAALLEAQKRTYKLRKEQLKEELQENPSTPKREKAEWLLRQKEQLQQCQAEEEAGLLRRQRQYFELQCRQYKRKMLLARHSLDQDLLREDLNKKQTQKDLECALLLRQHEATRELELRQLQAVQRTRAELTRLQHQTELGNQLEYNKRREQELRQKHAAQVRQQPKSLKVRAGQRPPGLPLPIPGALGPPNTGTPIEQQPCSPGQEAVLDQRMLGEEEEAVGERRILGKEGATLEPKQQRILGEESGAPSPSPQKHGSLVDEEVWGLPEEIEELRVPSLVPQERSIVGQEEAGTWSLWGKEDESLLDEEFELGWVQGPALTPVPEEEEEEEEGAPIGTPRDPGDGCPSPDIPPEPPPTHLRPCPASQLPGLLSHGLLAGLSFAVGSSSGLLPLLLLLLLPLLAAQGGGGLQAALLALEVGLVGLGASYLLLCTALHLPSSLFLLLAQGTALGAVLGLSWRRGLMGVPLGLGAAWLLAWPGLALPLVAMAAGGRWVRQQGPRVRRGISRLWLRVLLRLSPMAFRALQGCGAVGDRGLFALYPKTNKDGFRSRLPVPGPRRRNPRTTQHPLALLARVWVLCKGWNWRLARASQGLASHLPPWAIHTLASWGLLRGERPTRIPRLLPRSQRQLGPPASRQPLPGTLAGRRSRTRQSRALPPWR

SMILES | target or system | test | test system | setting | how to read | measurement | value
O=C(Nc1cccnn1)N1CC(Oc2ccc(-c3ccccc3F)cn2)C1 |  | item: plasma endocannabinoid trough levels | human, plasma | oral, repeated daily dosing, sustained to day 8 |  | time to steady state | 2 to 3 days
Fc1cccc(-n2cnc3c(NCc4nc5cc(Cl)ccc5[nH]4)nc(N4CCNCC4)nc32)c1 | FLT3 ITD | KINOMEscan competition binding |  | 10 µM | baseline: control | remaining binding | 15%
Nc1ccc([N+](=O)[O-])cc1-c1nc2cc(Cl)ccc2n(Cc2ccccc2)c1=O |  |  | mouse loperamide-induced constipation |  |  | laxative efficacy | no effect
COc1cc(CC(=O)NCC(NC(=O)C(CCCNC(=O)c2cccc(I)c2)NC(=O)C(Cc2ccc(C(F)(F)P(=O)(O)O)cc2)NC(=O)c2ccc(C)c(Br)c2)C(N)=O)ccc1O (stereo not drawn) |  | immunoblot | diet-induced obese mouse, liver, muscle, white adipose | 2 weeks, with: insulin bolus, 3 min |  | Akt Ser473 phosphorylation increase | 40 to 60%
Nc1c(C(=O)Nc2c(F)cc(F)cc2Br)sc2nc3c(cc12)CCC3 | H1299 |  |  | concentration not given, 48 h |  | total SOD activity | decreased
COc1cccc(Cc2c(C)c(C)nn(CC(=O)Nc3ccc(Br)cc3)c2=O)c1 |  | paw pressure test | rat, CFA-induced arthritis | oral, 30 mg/kg, day 14, 30 to 60 min |  | pain threshold | 53.5 ± 2.3 g
COc1ccc(N2C(=O)N(c3c(C)cccc3Cl)Cc3cnc(Nc4ccc(N5CCN(C)CC5)cc4OC)nc32)nc1 |  | IL-10 production | bone marrow-derived dendritic cells, mouse | with: zymosan A |  | EC50 | 70 ± 40 nM
O=C(/C=C/c1nc2ccccc2[nH]1)c1c(-c2ccccc2)c2cc(Cl)ccc2[nH]c1=O |  |  | nude mouse, SK-MEL-5 xenograft | oral gavage, dose not given |  | tumour growth | no effect
C[C@H]1CCCN1Cc1cc2cnc(NC(=O)c3ccc4c(cnn4C)c3)cc2[nH]1 |  |  | mouse, MLL-ENL sample B xenograft, bone marrow and spleen | oral, 200 mg/kg once daily, 4 weeks | baseline: vehicle | leukaemia burden | decreased
CC[C@@H]1C(=O)N(C)c2cnc(Nc3ccc(C(=O)NC4CCN(C)CC4)cc3OC)nc2N1C1CCCC1 | ATPase family AAA domain-containing protein 2B (ATAD2B, Homo sapiens, UniProt Q9ULI0) |  |  | 10 µM |  | delta Tm | -0.28 ± 0.12 °C
COc1ccc(OC[C@H]2c3cccn3CC(=O)N2Cc2cccc(F)c2)cc1 |  |  | CA1 stratum radiatum interneurons, mouse wild type P11-15, hippocampal slice | 10 µM |  | NMDAR EPSC peak amplitude | -93 ± 58 pA
CCCCCCCCCCCCCC=C[C@@H](O)[C@H](CO[C@@H]1O[C@H](CO)[C@@H](O[C@@H]2O[C@H](CO)[C@H](O)[C@H](O[C@]3(C(=O)O)C[C@H](O)[C@@H](NC(C)=O)[C@H]([C@H](O)[C@@H](CO)O[C@]4(C(=O)O)C[C@H](O)[C@@H](NC(C)=O)[C@H]([C@H](O)[C@H](O)CO)O4)O3)[C@H]2O)[C@H](O)[C@H]1O)NC(=O)CCCCCCCCCCCCCCCCC |  |  | C57BL/6 mouse, serum | intravenous, dose not given, with: α-GalCer 1 µg |  | serum IL-12 level | inhibited
Fc1cc(-c2ccc3c(n2)[nH]c2ccncc23)ccn1 [isotope labelled] | Microtubule-associated protein tau, paired helical filaments (MAPT, Homo sapiens, UniProt P10636) | radioligand binding | PHF tau brain homogenate | 1.8 nM | higher = more binding | specific binding | 2.02 a.u.
Cc1c(O)cc2c(c1C)O[C@](C)(CCCC(C)C)CC2 |  | item: Akt Ser473, MDM2, IKKα | athymic nude mouse, LNCaP-abl xenograft, tumour | intraperitoneal, 50 mg/kg daily, 21 days |  | phosphorylation | decreased
O=C1C=C(NCCc2cc(Br)c(O)c(Br)c2)C(=O)c2ncccc21 |  |  | SCID/Beige mice, MNNG-HOS lung metastasis, lung | dose not given |  | metastatic foci number | no effect
CCN1CCN(Cc2ccc(NC(=O)c3ccc(C)c(Oc4ncnc5cc(OC)c(OC)cc45)c3)cc2C(F)(F)F)CC1 | Serine/threonine-protein kinase TAO2 (TAOK2, Homo sapiens, UniProt Q9UL54) | KINOMEscan competition binding |  | 1.0 µM |  | residual probe binding | 0.1%
Cc1ccc([C@H](CC(=O)O)NC(=O)Nc2c(O)c(C)cn(Cc3ccccc3Cl)c2=O)cc1 |  | item: hCD45+ hCD19+ | LAX7R xenograft, NSG mouse, spleen | 60 mg/kg, 36 h |  | B-ALL cells | no effect
Cc1cccc(NC(=O)c2nn(Cc3cnc[nH]3)c3c2CN(C(=O)c2ccc[nH]2)CC3)c1 | IDH1 R132G AML cells | CD45/SSC flow cytometry |  | 3 µM, 7 days | baseline: DMSO | granulocytic/monocytic cell fraction | 1.3 ± 0.1 fold

Excerpt of the above:
SMILES | target or system | test | test system | setting | how to read | measurement | value
COc1ccc(N2C(=O)N(c3c(C)cccc3Cl)Cc3cnc(Nc4ccc(N5CCN(C)CC5)cc4OC)nc32)nc1 |  | IL-10 production | bone marrow-derived dendritic cells, mouse | with: zymosan A |  | EC50 | 70 ± 40 nM
O=C(/C=C/c1nc2ccccc2[nH]1)c1c(-c2ccccc2)c2cc(Cl)ccc2[nH]c1=O |  |  | nude mouse, SK-MEL-5 xenograft | oral gavage, dose not given |  | tumour growth | no effect
